Experimental data collected from several papers.

For `Cc1ccc(OCC(=O)O)cc1`, the Tmax was 60 min (Sprague-Dawley rat, female, plasma; oral, 10 mg/kg/day of parent drug, day 1, 90-day repeated dosing).
`O=C(O)CN1CCN(CC(=O)O)CCN(C(CCC(=O)NCc2ccc(NC(=S)NCCOCCOCCOCCNC(=O)CCCc3ccc(I)cc3)cc2)C(=O)O)CC1` (centres unmarked) has a Tmax of 32.5 min (dynamic PET/CT; Sprague-Dawley rats female, cisterna magna; intracisternal infusion, median).
`CCCC(CCC(=O)O)NC(=O)c1ccc2c(c1)OCO2` (centres unmarked) gave a Tmax of 26.4 min (female Sprague-Dawley rat, plasma; oral, 20 mg/kg of parent drug).
For `N[C@@H](COc1ccccc1C(F)(F)F)c1ccccc1`, the Tmax was 10.8 min (male Sprague-Dawley rat; intravenous, 5 mg/kg).
The Tmax (median) of `NC(=O)c1cnc2[nH]ccc2c1NC1C2CC3CC1CC(OS(=O)(=O)O)(C3)C2` (centres unmarked) is reported as 90 min (Japanese adults, moderate hepatic impairment, plasma; oral, 150 mg single dose).
`CCCC(CCC)NC(=O)c1ccc(OS(=O)(=O)O)c(OC)c1` has a Tmax of 52.8 min (female Sprague-Dawley rat, plasma; oral, 200 mg/kg of parent drug).
For `Cn1cc(C(N)=O)c(NC2C3CC4CC2CC(OS(=O)(=O)O)(C4)C3)c2ccnc1-2` (centres unmarked), the Tmax (median) was 180 min (Japanese adults, moderate hepatic impairment, plasma; oral, 150 mg single dose).
The Tmax ratio of `O=c1nc(NO)ccn1[C@@H]1O[C@H](CO)[C@@H](O)[C@H]1O` is reported as 1.8 fold (male Wistar rats, plasma; oral, 30 mg/kg; baseline: CFA-arthritic over normal rats).

Some of these lines once more:
`CCCC(CCC(=O)O)NC(=O)c1ccc2c(c1)OCO2` (centres unmarked) gave a Tmax of 26.4 min (female Sprague-Dawley rat, plasma; oral, 20 mg/kg of parent drug).
